Measured values of several laboratories.
Numbers after ± are the reported error. In brackets after ≈: the same amount, converted by molar mass. Where no end group is shown, it is not given here.

`ADVDHVFLRF-NH2 (C-amide)` gave an inhibition of 95% (Drosophila melanogaster; gut contraction; wandering third instar larval gut; injection, 1 µM, within 10 min; baseline: DMS effect).
For `SSASAW`, viral yield read “no effect” (rhesus rotavirus; viral replication; peptide, mouse cholangiocytes; concentration not given, 18 h, 37 °C).
For `STFFRLFNRSFTQGRRRRSVQWCA`, biofilm growth read “no effect” (Streptococcus gordonii; OD600; peptide, ATCC 10558, 4 h single-species biofilm; 128 µg/ml, 5 min exposure, OD600 read over 5 h).
CCCCCCCCOc1c(OC)cc(NC(C)CCCNC(=O)C(N)CCSC)c2nc(C(C)(C)C)ccc12 (centres unmarked) gave an MBC of 20 µg/mL (≈ 34.8 µM) (Staphylococcus aureus; microbial killing; ATCC33591 MRSA; drug-resistant strain).
The herbicidal activity of CP(=O)(O)CCC(N)C(=O)O (centres unmarked) is reported as 70% (Chenopodium album; 125 g/ha, 13 days, CHEAL, post-emergence spray; baseline: untreated (0%), complete kill (100%)).
For `meglumine antimoniate`, “inhibition of infection” read 31% (Leishmania braziliensis; J774.2 macrophages; IC25, day 10; baseline: untreated).
O=C(/C=C/c1ccccc1)N/N=C/c1ccccc1 has an MIC of 17.8 µM (≈ 4.45 µg/mL) (Candida albicans, Aspergillus niger; fungal growth).
For CC(=NNC(=O)CN1c2c(-c3ccccc3)n[nH]c2-c2ccccc2S1(=O)=O)c1ccc([N+](=O)[O-])s1, the EC90 was > 100 µM (HIV-1; viral replication; PBMC).
With CC(=O)OC[C@]12Oc3ccc(-c4ccc5c(c4O)C(=O)C4=C(O)C[C@@H](C)[C@@H](OC(C)=O)[C@@]4(COC(C)=O)O5)c(O)c3C(=O)C1=C(O)C[C@@H](C)[C@H]2OC(C)=O the pycnidia count was 187 ± 9 (Phyllosticta citricarpa; Citrus sinensis leaf discs; 10000 µg/mL, 504 h, methanol solution).
For COc1cc(C=CC(=O)CC(=O)C=Cc2ccc(O)c(OC)c2)ccc1O, the survival time was 22 days (Plasmodium berghei; ANKA, C57BL/6 mice, infected; oral, 20 and 40 mg/kg).
The MBC of CCCCCCCCOc1c(OC)cc(NC(C)CCCN)c2nc(C(C)(C)C)ccc12 (centres unmarked) is reported as 20 µg/mL (≈ 45.1 µM) (Staphylococcus aureus; microbial killing; ATCC33591 MRSA; drug-resistant strain).
For CCCc1ccc(O)c(OC)c1, the LD50 was 2020 mg/kg (Spodoptera frugiperda; insecticidal activity; larvae; topical).
For CN[C@@H]1[C@H](O)[C@H](NC)[C@H]2O[C@@]3(O)C(=O)C[C@@H](C)O[C@H]3O[C@@H]2[C@H]1O, the inhibition zone was 11 to 12.5 mm (Haemophilus influenzae; microbial growth, disc diffusion; ATCC49247; 40 µg/disc).
With CC(=NNC(=O)CN1c2c(-c3ccccc3)n[nH]c2-c2ccccc2S1(=O)=O)c1ccc(C)o1 the EC90 was > 100 µM (HIV-1; viral replication; PBMC).
With CC=Cc1ccc(OC(=O)c2ccc([N+](=O)[O-])cc2)c(OC)c1 the LD50 was 2020 mg/kg (Spodoptera frugiperda; insecticidal activity; larvae; topical).
CC(C)C[C@H](NC(=O)[C@H](C)NC(=O)[C@H](CC(C)C)NC(=O)[C@H](CCCCN)NC(=O)[C@H](CCCCN)NC(=O)[C@H](Cc1c[nH]c2ccccc12)NC(=O)[C@H](CC(C)C)NC(=O)[C@@H]1CCCN1C(=O)[C@H](C)NC(=O)[C@H](CC(C)C)NC(=O)[C@H](CCCCN)NC(=O)[C@H](CCCCN)NC(=O)[C@H](CC(C)C)NC(=O)[C@H](C)NC(=O)[C@H](CC(C)C)NC(=O)[C@H](C)NC(=O)[C@H](CC(C)C)NC(=O)[C@H](CCCCN)NC(=O)[C@@H](N)CCCCN)C(=O)N[C@@H](C)C(=O)N[C@@H](CC(C)C)C(=O)N[C@@H](CCCCN)C(=O)N[C@@H](CCCCN)C(=O)N[C@@H](C)C(N)=O gave an MIC50 of 2.14 ± 0.53 µM (≈ 5.69 µg/mL) (Pseudomonas aeruginosa; broth microdilution; PAO1; overnight, 37 °C).
`TFFRLFNRGRRRRSVQWCA` — result for biofilm growth: “no effect” (Streptococcus gordonii; OD600; peptide, ATCC 10558, 4 h single-species biofilm; 128 µg/ml, 5 min exposure, OD600 read over 5 h).
Cc1ccccc1-c1nc(CN2CCC(C(=O)NCCCN3CCCC3)CC2)c(C)o1 gave a maximal response of -75.4% (Hepatitis C virus; HCV infection, Gaussia luciferase reporter; Huh7.5.1 reporter cells; baseline: 10 µM cyclosporin A, DMSO, negative means inhibition).
With C=C1[C@@H](C)[C@H]2[C@H](Cc3ccccc3)NC(=O)[C@]23[C@H](OC(C)=O)/C=C/[C@](C)(O)C[C@@H](C)C/C=C/[C@H]3[C@@H]1O the mycelial growth was 0.7 ± 0.2 cm (Phyllosticta citricarpa; PDA plate; 100 µL of 10 mg/mL, 21 days, methanol solution).
The inhibition of `DHVFLRF-NH2 (C-amide)` is reported as 81% (Drosophila melanogaster; heart rate; adult heart; 40 nL injected, 1 µM, 10 min; baseline: DMS).
With O=C(CN1c2c(n[nH]c2-c2cccc(Cl)c2)-c2ccccc2S1(=O)=O)NN=Cc1ccc(C(=O)O)cc1 the EC90 was 23 µM (HIV-1; viral replication; PBMC).
With CCCCCCOc1c(OC)cc(NC(C)CCCNC(=O)C(N)CCSC)c2nc(C(C)(C)C)ccc12 (centres unmarked) the MBC was 20 µg/mL (≈ 36.6 µM) (Staphylococcus aureus; microbial killing; ATCC33591 MRSA; drug-resistant strain).
`TRTRVSRLY` has a viral yield of 59.9% (rhesus rotavirus; peptide, mouse cholangiocytes; 2 mM, 18 h, 37 °C; baseline: medium control).
With CC(C)C[C@H](NC(=O)[C@H](C)NC(=O)[C@H](CCCCN)NC(=O)[C@H](Cc1c[nH]c2ccccc12)NC(=O)[C@H](CC(C)C)NC(=O)[C@H](CC(C)C)NC(=O)[C@H](C)NC(=O)[C@H](CC(C)C)NC(=O)[C@H](CCCCN)NC(=O)[C@H](C)NC(=O)[C@@H]1CCCN1C(=O)[C@H](C)NC(=O)[C@H](CC(C)C)NC(=O)[C@H](CCCCN)NC(=O)[C@H](CC(C)C)NC(=O)[C@H](CCCCN)NC(=O)[C@@H](N)CCCCN)C(=O)N[C@@H](C)C(=O)N[C@@H](CC(C)C)C(=O)N[C@@H](CCCCN)C(=O)N[C@@H](CC(C)C)C(=O)N[C@@H](CCCCN)C(=O)N[C@@H](CCCCN)C(=O)N[C@@H](C)C(N)=O the MIC50 was 2.98 ± 0.21 µM (≈ 7.92 µg/mL) (Pseudomonas aeruginosa; broth microdilution; PAO1; overnight, 37 °C).
With CCCCCCOc1c(OC)cc(NC(C)CCCN)c2nc(C(C)(C)C)ccc12 (centres unmarked) the MBC was 10 µg/mL (≈ 24.1 µM) (Staphylococcus aureus; microbial killing; ATCC33591 MRSA; drug-resistant strain).
`DVDHVFLRF-NH2 (C-amide)` gave an inhibition of 17% (Drosophila melanogaster; gut contraction; wandering third instar larval gut; injection, 1 µM, within 10 min; baseline: DMS effect).
The MBC of CCCCCOc1c(OC)cc(NC(C)CCCNC(=O)C(N)CCCCN)c2nc(C(C)(C)C)ccc12 (centres unmarked) is reported as > 20 µg/mL (Staphylococcus aureus; MRSA ATCC 33591).
For CCC1CCCCN1CCCNC(=O)c1ccc2c(=O)n(CCOC)c(=O)[nH]c2c1 (centres unmarked), the maximal response was -1.23% (Hepatitis C virus; HCV infection, Gaussia luciferase reporter; Huh7.5.1 reporter cells; baseline: 10 µM cyclosporin A, DMSO, negative means inhibition).
COc1cc(C=NNC(=O)CN2c3c(n[nH]c3-c3cccc(Cl)c3)-c3ccccc3S2(=O)=O)cc(OC)c1OC gave an EC90 of 13.5 µM (HIV-1; viral replication; PBMC).
C[C@@H]1C[C@H]2[C@@H]3CCC4=CC(=O)C=C[C@]4(C)[C@@]3(F)[C@@H](O)C[C@]2(C)[C@@]1(O)C(=O)CO: “earliest stage with reporter increase” 2 dpf (Danio rerio; GRE luciferase reporter; 20 µM, 9 h).
With CCCCCCOc1c(OC)cc(NC(C)CCCNC(=O)C(C)N)c2nc(C(C)(C)C)ccc12 (centres unmarked) the MBC was > 20 µg/mL (Staphylococcus aureus; MRSA ATCC 33591).
The inhibition of N#C[C@]1(CO)/C(=C\F)[C@@H](n2cnc3c(=O)[nH]c(N)nc32)C[C@@H]1O is reported as 95 to 100% (Hepatitis B virus; HBV DNA production; HepG2.2.15, wild type; 10 µM, 11 d exposure then 14 d without compound).
The MIC99 of CC(=O)c1c(O)c(C)c(O)c2c1OC1=CC(=O)C(=C(C)N[C@@H](CCCNC(=N)N)C(=O)O)C(=O)[C@@]12C is reported as 12 µM (≈ 6.01 µg/mL) (Candida tropicalis; broth microdilution; ATCC 750 fluconazole and amphotericin B resistant; 24 and 48 h).
O=C/C=C/c1ccccc1 — result for “zone of inhibition”: 11 mm (Candida tropicalis; MTCC 230; 1000 µg/mL, 18 h).
CCCCCOc1c(OC)cc(NC(C)CCCN)c2nc(C(C)(C)C)ccc12 (centres unmarked) gave an MBC of > 20 µg/mL (Staphylococcus aureus; microbial killing; ATCC33591 MRSA; drug-resistant strain).
Cc1oc(-c2ccc(Cl)cc2)nc1CN1CCCC(C(=O)NCCCN2CCCC2=O)C1 (centres unmarked) gave a maximal response of -64.8% (Hepatitis C virus; HCV infection, Gaussia luciferase reporter; Huh7.5.1 reporter cells; baseline: 10 µM cyclosporin A, DMSO, negative means inhibition).
C/C=C/C=C/C(=O)N/N=C/c1ccccc1 has an MIC of 57.5 µM (≈ 12.3 µg/mL) (Candida albicans, Aspergillus niger; fungal growth).
For COC(=O)N[C@H](C(=O)N1CCC[C@H]1c1ncc(-c2ccc(-c3ccc(-c4cnc([C@@H]5CCCN5C(=O)[C@@H](NC(=O)OC)C(C)C)[nH]4)cc3)cc2)[nH]1)C(C)C, the EC50 was 0.0073 ± 0.0011 µM (hepatitis C virus; viral replication, transient replicon; genotype 1a NS5A Q30R).

Repeated from above:
C[C@@H]1C[C@H]2[C@@H]3CCC4=CC(=O)C=C[C@]4(C)[C@@]3(F)[C@@H](O)C[C@]2(C)[C@@]1(O)C(=O)CO: “earliest stage with reporter increase” 2 dpf (Danio rerio; GRE luciferase reporter; 20 µM, 9 h).
With CCCCCCOc1c(OC)cc(NC(C)CCCNC(=O)C(C)N)c2nc(C(C)(C)C)ccc12 (centres unmarked) the MBC was > 20 µg/mL (Staphylococcus aureus; MRSA ATCC 33591).
